Published values gathered from unrelated publications.
Compare with care: the assays were run in different laboratories. “And” joins repeats or separate records; there may be more than shown. ± gives the spread as reported.
IKBKB: Inhibitor of nuclear factor kappa-B kinase subunit beta (IKBKB, Homo sapiens, UniProt O14920)
Sequence of UniProt O14920 (whole entry, looked up): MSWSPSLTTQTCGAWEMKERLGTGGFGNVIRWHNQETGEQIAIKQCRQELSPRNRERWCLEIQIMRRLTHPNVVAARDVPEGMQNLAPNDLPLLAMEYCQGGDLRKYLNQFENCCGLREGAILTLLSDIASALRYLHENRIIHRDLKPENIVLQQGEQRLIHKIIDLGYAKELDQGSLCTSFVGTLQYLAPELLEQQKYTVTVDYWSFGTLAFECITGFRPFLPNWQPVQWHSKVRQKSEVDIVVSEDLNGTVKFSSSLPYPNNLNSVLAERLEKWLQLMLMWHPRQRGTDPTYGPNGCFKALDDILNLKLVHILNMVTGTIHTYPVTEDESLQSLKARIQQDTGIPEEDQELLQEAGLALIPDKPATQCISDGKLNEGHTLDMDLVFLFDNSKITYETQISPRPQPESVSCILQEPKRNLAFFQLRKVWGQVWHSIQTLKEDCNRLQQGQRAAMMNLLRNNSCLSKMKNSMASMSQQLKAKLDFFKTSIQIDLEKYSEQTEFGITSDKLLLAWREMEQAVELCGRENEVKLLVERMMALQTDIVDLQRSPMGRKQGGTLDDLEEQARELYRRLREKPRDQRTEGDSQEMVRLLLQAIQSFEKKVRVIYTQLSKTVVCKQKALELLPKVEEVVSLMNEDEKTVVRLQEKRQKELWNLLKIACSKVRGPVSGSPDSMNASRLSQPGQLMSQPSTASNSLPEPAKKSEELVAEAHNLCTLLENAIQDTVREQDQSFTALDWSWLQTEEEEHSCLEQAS
UGT1A4: UDP-glucuronosyltransferase 1A4 (UGT1A4, Homo sapiens, UniProt P22310)
Sequence of UniProt Q16774 (whole entry, unmodified, looked up): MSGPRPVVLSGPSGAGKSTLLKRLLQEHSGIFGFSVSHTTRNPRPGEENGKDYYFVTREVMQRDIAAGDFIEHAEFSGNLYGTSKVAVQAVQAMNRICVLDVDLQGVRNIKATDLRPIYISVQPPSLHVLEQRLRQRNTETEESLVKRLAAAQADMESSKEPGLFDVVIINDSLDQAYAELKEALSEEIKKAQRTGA
Sequence of UniProt P22310 (whole entry, looked up): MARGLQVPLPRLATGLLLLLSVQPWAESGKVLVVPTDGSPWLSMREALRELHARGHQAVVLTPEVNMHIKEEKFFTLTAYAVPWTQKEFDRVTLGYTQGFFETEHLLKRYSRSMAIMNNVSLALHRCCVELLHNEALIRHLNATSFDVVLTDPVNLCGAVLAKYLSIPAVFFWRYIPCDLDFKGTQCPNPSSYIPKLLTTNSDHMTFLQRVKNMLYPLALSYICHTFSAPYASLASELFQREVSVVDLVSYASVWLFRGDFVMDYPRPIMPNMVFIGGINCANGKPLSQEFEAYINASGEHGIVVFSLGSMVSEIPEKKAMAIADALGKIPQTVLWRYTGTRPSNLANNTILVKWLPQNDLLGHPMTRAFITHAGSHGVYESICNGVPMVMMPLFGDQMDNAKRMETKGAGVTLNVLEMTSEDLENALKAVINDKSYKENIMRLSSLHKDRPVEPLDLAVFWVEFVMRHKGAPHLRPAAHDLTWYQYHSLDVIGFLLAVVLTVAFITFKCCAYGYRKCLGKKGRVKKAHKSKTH
Sequence of UniProt P54764 (whole entry, looked up): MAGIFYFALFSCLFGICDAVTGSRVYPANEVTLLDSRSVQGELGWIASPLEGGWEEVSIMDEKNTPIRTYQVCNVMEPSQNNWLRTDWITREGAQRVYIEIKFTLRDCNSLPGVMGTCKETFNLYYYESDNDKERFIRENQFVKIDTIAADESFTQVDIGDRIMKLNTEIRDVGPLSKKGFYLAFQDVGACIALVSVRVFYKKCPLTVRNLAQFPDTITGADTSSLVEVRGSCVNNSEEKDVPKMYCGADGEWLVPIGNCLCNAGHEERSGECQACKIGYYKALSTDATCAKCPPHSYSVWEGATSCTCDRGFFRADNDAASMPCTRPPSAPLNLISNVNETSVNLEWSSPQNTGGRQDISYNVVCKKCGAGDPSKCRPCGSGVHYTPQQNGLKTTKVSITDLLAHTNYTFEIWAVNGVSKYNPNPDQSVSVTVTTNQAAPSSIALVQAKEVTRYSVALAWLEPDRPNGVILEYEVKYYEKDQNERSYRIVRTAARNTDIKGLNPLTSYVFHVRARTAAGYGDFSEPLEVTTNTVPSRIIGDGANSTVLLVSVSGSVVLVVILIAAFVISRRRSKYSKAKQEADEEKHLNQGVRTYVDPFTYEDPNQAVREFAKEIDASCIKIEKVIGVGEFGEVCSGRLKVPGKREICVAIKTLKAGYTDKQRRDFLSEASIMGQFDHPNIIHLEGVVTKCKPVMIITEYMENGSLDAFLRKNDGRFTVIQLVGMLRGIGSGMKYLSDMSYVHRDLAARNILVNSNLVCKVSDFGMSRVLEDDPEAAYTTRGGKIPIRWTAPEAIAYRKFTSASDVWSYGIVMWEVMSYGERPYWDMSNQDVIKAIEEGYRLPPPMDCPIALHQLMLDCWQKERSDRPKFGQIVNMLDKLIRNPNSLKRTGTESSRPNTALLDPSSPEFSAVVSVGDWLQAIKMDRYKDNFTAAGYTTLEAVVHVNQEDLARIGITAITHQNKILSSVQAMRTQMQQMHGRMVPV
Sequence of UniProt Q9BXA7 (whole entry, looked up): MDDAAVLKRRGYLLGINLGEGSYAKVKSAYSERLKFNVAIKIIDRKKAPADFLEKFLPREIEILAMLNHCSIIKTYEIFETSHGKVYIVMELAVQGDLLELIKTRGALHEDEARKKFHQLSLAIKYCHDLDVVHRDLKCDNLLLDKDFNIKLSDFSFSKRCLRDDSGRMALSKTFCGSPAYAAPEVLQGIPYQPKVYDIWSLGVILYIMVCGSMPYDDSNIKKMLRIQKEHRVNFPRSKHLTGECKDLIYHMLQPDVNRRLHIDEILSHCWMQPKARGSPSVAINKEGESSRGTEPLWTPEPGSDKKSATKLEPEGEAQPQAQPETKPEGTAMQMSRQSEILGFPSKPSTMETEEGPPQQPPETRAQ
Sequence of UniProt O00238 (whole entry, looked up): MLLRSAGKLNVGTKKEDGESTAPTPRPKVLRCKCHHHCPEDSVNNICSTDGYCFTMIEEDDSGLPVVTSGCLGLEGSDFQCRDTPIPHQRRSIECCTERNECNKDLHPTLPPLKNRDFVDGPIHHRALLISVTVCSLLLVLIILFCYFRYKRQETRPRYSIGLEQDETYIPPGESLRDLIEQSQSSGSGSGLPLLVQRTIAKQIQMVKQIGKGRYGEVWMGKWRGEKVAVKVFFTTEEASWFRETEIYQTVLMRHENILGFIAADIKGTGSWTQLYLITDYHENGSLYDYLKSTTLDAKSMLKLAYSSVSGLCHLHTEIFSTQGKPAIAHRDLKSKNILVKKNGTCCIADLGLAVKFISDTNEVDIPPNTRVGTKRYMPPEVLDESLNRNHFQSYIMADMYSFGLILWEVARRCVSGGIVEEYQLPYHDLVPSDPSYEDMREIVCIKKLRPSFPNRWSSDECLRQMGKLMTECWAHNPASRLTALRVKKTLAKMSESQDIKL
Sequence of UniProt P48067 (whole entry, looked up): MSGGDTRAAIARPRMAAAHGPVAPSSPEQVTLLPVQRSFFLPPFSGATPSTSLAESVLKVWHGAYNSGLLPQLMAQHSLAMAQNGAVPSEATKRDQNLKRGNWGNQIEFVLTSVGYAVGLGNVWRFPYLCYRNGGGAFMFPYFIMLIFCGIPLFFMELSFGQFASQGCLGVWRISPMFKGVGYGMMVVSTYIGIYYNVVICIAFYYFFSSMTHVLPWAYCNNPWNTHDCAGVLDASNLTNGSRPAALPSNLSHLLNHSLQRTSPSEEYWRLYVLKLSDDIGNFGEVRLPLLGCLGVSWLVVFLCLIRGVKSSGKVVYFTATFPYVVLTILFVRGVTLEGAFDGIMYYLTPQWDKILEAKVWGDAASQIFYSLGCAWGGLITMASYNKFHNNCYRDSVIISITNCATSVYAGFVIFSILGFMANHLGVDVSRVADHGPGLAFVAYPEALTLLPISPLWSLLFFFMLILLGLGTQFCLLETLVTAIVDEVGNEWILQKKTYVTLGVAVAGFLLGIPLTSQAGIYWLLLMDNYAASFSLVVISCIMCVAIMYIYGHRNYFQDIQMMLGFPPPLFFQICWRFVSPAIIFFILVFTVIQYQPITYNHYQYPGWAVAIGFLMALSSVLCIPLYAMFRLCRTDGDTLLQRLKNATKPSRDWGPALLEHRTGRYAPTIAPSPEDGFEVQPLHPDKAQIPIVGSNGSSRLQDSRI
Sequence of UniProt O94921 (whole entry, looked up): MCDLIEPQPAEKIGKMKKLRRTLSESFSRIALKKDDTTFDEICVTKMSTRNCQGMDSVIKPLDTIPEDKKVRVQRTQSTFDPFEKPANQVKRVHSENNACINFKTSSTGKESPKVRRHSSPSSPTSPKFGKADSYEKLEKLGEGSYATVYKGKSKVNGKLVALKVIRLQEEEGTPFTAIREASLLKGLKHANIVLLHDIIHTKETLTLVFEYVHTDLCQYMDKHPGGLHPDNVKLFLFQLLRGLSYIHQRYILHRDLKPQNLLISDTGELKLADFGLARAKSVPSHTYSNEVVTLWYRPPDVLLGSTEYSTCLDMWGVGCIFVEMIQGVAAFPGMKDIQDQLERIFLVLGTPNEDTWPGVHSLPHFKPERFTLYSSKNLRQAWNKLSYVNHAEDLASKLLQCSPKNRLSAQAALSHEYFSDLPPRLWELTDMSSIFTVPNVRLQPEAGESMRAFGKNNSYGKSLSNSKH
Sequence of UniProt P51575 (whole entry, unmodified, looked up): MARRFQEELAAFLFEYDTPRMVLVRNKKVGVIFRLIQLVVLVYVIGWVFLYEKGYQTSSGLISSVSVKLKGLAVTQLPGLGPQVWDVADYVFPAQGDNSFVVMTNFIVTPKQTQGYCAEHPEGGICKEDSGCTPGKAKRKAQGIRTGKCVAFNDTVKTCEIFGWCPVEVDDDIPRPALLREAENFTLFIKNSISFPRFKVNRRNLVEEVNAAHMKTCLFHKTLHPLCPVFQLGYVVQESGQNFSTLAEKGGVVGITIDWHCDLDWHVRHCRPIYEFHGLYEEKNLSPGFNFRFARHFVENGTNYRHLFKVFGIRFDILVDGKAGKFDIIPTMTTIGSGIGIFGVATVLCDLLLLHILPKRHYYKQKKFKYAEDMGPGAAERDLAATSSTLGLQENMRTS

COc1ccc(F)cc1C(=O)NCc1ccc(-c2nn([C@@H](C)C(F)(F)F)c(N)c2C(N)=O)cc1
remaining activity (Dual specificity mitogen-activated protein kinase kinase 1 (MAP2K1, Homo sapiens, UniProt Q02750); kinase activity, inhibitor, HotSpot radiometric; 1000 nM, with: ATP at Km): 12.2 ± 1.4%

COC(=O)c1cn(C)c2ccc(-c3cccnc3)cc12
metabolic activity (COS-7; WST-8; 10 µM, 24 h, 0.1% DMSO, unit not given; reference: vehicle control): 0.98 ± 0.06

O=C(NC1CCC1)c1ccc2nc(-c3cccc(NS(=O)(=O)NCCN4CCCCC4)c3)cn2c1
remaining activity (Cyclin-dependent kinase 14 (CDK14, Homo sapiens, UniProt O94921); enzyme activity; 10 µM): 95%

Cc1cc(Nc2cc(N3CCN(C)CC3)nc(Sc3ccc(NC(=O)C4CC4)cc3)n2)[nH]n1
remaining activity (IKBKB; kinase activity, KinaseProfiler; 0.03 µM, species human; reference: control): 105%

CCN1CCN(c2cc(N3CCN(CC)CC3)nc(NCCNc3ccnc4cc(Cl)ccc34)n2)CC1
confluence (COS-7; 10 µM, 24 h, 0.1% DMSO, unit not given; reference: vehicle control): 0.95 ± 0.17

CNCC(=O)O
remaining activity (Sodium- and chloride-dependent glycine transporter 1 (SLC6A9, Homo sapiens, UniProt P48067); [3H]glycine uptake, inhibitor; HEK293F cells; 100 µM; reference: cells without inhibitor): 97%

COc1c(O)c(C)cc2c1C(=O)c1c(ccc(O)c1O)C2=O
cell viability (HepaRG co-cultured with HK-2; MTT; 133.33 µM, 24 h; reference: untreated control): 77.7 ± 8.08%

Cc1cc(NC(=O)c2cccc(NC(=O)/C=C/CN(C)C)c2)ccc1Nc1nccc(-c2cccnc2)n1
remaining activity (Mitogen-activated protein kinase 8 (MAPK8, Homo sapiens, UniProt P45983); enzyme activity, inhibitor; 0.006774 µM, 18 h, unit not given, with: GSH 10 mM pre-incubation; reference: vehicle): 1.03

O=c1cc(-c2ccc(O)c(-c3c(O)cc(O)c4c(=O)cc(-c5ccc(O)cc5)oc34)c2)oc2cc(O)cc(O)c12
remaining activity (UGT1A4; glucuronidation, inhibitor; human liver microsomes; 100 µM, with: probe substrate 0.5 µM; reference: no inhibitor): ~8%

COc1cc(Nc2ncc3c(n2)-c2ccc(Cl)cc2C(c2c(F)cccc2OC)=NC3)ccc1C(=O)O
remaining activity (PIM1; kinase activity; 1 µM): 100%

Nc1ncnc2c1ncn2[C@@H]1O[C@H](COP(=O)(O)CP(=O)(O)OP(=O)(O)O)[C@@H](O)[C@H]1O
calcium influx (P2X purinoceptor 1 (P2RX1, Homo sapiens, UniProt P51575, L218T); calcium influx; 3.16 nM; reference: ionomycin response): 0%

C[C@@H]1CC[C@@]2(OC1)O[C@H]1C[C@H]3[C@@H]4CC[C@H]5C[C@@H](O)CC[C@]5(C)[C@H]4CC(=O)[C@]3(C)[C@H]1[C@@H]2C
remaining activity (UGT1A4; glucuronidation, inhibitor; human liver microsomes; 1 µM, with: probe substrate 0.5 µM; reference: no inhibitor): ~55%

O=C1c2cccc(O)c2C(=O)c2c(O)cc(CO)cc21
cell viability (HepaRG co-cultured with HK-2; MTT; 266.67 µM, 24 h; reference: untreated control): 112 ± 9.53%

O=C(O)c1ccc(Nc2ncc3c(n2)-c2ccc(Cl)cc2C(c2c(F)cccc2F)=NC3)cc1
remaining activity (human JNK3(h); kinase activity; 1 µM): 125%

O=C1NC(=O)/C(=C/c2ccc(-c3ccc(F)cc3O)o2)S1
remaining activity (Ephrin type-A receptor 4 (EPHA4, Homo sapiens, UniProt P54764); enzyme activity; 10 µM): 74%

COc1cc(N2CCN(C)CC2)ccc1Nc1nc(N)n(C(=S)NCc2c(Cl)cccc2Cl)n1
remaining activity (Receptor-interacting serine/threonine-protein kinase 2 (RIPK2, Homo sapiens, UniProt O43353); enzyme activity; 10 µM; reference: control): 11%

CNc1ncc2c(/C=C/C(=O)N3CCC(OC)CC3)nn(Cc3cccc(C(F)(F)F)c3)c2n1
remaining activity (Testis-specific serine/threonine-protein kinase 1 (TSSK1B, Homo sapiens, UniProt Q9BXA7); kinase activity, inhibitor; 1 µM; reference: untreated control): 90%

COc1cc(-c2cncc3c2CN(C)Cc2cc(N4CCNCC4)ccc2-3)cc(OC)c1OC
remaining activity (Bone morphogenetic protein receptor type-1B (BMPR1B, Homo sapiens, UniProt O00238); kinase activity; 1 µM, human enzyme, with: ATP 10 µM; reference: DMSO control): 11%

C=CC(=O)N1CCC[C@@H](n2nc(-c3ccc(Oc4ccccc4)cc3)c3c(N)ncnc32)C1
remaining activity (Receptor tyrosine-protein kinase erbB-3 (ERBB3, Homo sapiens, UniProt P21860); 10 µM): 154%

COc1cc(F)ccc1-c1ncnc(Nc2cccc(C[S@](C)(=N)=O)c2)n1
remaining activity (IKBKB; kinase activity; 10 µM, with: 10 µM ATP): 101%

Nc1nc2c(ncn2[C@@H]2O[C@H](COP(=O)(O)O)[C@@H](O)[C@H]2O)c(=O)[nH]1
reaction rate (GUK1 (Homo sapiens, UniProt Q16774, Y81A); enzyme activity, NADH-coupled; 125 µM): 1.64 s⁻¹ and 2.22 s⁻¹ and 1.31 s⁻¹

A few entries again:
CNCC(=O)O
remaining activity (Sodium- and chloride-dependent glycine transporter 1 (SLC6A9, Homo sapiens, UniProt P48067); [3H]glycine uptake, inhibitor; HEK293F cells; 100 µM; reference: cells without inhibitor): 97%

COc1c(O)c(C)cc2c1C(=O)c1c(ccc(O)c1O)C2=O
cell viability (HepaRG co-cultured with HK-2; MTT; 133.33 µM, 24 h; reference: untreated control): 77.7 ± 8.08%
